Experimental data of several laboratories.
Protocols differ between the studies behind these lines. ± marks the error that the study gave.
Sequence of UniProt Q14204 (whole entry, looked up): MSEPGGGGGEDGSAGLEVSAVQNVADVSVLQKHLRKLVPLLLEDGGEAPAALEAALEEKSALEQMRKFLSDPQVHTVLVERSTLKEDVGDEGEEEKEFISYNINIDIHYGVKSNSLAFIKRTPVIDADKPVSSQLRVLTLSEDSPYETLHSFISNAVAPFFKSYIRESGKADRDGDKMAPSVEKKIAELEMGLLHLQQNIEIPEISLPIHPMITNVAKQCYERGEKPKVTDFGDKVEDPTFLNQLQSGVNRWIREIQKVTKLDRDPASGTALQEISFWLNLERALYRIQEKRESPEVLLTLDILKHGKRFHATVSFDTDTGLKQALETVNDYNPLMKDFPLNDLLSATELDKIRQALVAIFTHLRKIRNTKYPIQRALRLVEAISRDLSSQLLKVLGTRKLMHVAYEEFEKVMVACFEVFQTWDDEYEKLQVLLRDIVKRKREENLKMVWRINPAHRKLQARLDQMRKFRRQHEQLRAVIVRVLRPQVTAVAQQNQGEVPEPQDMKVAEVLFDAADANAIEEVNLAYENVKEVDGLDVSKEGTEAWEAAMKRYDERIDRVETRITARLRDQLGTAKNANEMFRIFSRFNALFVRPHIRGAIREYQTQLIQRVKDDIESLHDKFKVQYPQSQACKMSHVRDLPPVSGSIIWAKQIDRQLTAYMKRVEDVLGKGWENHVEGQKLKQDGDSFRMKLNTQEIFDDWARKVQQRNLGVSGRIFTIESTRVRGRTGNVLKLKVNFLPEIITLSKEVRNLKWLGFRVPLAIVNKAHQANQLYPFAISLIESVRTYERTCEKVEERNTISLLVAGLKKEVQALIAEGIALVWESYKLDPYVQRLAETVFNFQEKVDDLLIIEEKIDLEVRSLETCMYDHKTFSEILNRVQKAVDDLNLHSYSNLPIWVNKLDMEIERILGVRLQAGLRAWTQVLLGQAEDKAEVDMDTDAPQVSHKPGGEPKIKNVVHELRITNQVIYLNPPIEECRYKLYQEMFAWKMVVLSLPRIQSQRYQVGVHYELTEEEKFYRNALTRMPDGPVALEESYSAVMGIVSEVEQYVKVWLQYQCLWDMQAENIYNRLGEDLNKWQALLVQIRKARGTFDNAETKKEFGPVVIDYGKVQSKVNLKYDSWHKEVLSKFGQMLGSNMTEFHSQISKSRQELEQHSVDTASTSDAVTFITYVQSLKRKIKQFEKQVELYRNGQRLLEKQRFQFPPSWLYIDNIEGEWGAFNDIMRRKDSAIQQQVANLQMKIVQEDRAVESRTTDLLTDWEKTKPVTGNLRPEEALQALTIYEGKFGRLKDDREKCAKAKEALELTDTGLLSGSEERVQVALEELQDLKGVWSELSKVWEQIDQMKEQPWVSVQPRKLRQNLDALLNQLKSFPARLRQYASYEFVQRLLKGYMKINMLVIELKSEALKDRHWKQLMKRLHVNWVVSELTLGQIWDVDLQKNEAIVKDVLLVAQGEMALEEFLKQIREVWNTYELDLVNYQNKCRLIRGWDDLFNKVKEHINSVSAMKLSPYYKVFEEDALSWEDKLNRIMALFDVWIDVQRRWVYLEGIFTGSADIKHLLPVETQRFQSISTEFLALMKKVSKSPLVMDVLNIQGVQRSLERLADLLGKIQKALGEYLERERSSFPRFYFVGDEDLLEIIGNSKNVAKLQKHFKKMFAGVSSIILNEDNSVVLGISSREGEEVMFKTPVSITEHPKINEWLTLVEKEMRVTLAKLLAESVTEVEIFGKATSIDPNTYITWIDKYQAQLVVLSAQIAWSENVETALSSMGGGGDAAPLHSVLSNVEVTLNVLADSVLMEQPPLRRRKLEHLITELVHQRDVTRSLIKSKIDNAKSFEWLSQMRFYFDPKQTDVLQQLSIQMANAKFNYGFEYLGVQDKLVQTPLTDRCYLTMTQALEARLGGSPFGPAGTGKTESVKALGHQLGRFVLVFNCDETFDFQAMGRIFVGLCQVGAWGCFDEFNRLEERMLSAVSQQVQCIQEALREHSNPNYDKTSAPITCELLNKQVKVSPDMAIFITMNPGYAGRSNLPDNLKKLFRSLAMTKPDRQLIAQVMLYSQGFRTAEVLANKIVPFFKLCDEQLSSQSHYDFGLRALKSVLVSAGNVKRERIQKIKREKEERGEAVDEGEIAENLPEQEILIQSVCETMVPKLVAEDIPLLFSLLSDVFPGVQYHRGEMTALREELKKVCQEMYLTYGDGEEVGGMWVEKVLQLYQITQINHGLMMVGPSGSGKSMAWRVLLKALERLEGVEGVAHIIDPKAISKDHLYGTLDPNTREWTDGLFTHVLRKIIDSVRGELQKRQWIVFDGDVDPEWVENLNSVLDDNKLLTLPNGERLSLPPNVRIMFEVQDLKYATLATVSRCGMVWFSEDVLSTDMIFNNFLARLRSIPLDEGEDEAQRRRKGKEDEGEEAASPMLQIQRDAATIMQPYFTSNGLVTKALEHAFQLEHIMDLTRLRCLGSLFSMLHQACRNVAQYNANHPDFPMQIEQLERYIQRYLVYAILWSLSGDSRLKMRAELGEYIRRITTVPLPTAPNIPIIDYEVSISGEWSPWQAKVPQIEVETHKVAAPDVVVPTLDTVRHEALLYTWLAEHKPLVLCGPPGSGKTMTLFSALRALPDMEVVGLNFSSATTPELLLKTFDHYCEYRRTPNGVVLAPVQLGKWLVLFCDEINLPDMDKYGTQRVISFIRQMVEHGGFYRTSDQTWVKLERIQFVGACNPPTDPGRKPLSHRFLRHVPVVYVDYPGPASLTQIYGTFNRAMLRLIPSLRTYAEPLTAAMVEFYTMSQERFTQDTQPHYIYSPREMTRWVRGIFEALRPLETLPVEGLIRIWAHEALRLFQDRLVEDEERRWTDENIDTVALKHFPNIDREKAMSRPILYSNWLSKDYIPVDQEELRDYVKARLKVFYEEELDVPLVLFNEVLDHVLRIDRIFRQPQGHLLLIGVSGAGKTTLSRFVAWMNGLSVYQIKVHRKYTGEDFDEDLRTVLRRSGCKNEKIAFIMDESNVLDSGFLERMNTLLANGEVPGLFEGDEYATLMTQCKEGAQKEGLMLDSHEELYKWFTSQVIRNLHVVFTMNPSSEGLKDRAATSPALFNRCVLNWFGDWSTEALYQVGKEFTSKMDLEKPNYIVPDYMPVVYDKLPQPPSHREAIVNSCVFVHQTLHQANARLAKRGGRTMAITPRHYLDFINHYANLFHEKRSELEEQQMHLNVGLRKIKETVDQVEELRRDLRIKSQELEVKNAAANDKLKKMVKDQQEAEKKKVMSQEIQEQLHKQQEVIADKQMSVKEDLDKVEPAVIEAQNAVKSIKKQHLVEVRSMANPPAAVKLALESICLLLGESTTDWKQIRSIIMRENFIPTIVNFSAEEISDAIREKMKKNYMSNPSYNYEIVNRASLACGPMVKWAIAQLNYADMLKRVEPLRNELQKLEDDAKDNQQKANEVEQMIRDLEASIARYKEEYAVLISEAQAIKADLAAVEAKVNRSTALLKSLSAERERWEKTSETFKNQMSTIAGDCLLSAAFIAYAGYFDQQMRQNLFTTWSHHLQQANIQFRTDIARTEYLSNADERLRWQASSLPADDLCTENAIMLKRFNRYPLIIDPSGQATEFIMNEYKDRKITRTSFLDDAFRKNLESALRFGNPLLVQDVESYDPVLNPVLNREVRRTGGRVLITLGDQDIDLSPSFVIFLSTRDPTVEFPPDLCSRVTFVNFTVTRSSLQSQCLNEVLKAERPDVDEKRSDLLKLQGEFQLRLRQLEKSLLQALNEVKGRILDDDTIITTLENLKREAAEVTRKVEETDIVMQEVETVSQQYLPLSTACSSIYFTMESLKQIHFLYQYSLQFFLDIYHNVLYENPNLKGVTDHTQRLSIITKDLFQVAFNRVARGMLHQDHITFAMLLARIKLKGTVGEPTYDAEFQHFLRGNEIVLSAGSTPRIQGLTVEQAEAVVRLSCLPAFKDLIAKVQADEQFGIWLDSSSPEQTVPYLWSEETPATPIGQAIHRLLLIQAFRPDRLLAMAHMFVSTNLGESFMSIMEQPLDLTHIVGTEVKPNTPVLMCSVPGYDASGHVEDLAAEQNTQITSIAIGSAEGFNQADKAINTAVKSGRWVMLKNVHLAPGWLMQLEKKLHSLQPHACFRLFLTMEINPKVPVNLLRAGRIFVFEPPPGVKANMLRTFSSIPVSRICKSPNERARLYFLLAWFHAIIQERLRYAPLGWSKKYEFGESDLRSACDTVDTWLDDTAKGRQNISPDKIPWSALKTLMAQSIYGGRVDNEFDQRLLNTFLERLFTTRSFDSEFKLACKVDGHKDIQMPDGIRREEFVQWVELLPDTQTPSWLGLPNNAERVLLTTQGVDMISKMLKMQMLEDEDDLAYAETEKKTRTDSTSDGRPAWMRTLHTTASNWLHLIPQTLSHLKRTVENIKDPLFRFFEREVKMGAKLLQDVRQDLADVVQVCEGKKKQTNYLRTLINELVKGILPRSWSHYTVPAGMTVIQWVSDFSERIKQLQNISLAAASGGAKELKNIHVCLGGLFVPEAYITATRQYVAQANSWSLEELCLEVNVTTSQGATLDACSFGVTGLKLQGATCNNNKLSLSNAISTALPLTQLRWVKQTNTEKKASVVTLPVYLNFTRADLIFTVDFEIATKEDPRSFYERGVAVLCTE
Sequence of UniProt P21728 (whole entry, looked up): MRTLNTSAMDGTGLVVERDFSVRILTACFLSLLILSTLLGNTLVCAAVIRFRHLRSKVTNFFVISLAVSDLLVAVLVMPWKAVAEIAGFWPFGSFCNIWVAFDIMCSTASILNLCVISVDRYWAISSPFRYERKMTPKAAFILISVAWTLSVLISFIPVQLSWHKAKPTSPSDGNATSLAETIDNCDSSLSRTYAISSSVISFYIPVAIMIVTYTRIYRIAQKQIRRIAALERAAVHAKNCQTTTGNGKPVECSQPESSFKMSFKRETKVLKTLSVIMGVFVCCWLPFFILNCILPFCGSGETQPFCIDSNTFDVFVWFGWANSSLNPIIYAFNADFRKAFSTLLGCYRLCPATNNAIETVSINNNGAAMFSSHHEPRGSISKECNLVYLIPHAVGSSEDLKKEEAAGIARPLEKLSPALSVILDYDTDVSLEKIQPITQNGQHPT

`COC(=O)[C@H]1[C@@H](OC(=O)c2ccccc2)C[C@@H]2CC[C@H]1N2C` gave a stability bias of -3.67% (rat, whole blood; 10 nM, 4 h, room temperature, bench-top storage).
`CN1CC[C@]23c4c5ccc(O)c4O[C@H]2[C@@H](O)C=C[C@@]3(O)[C@H]1C5` has a Papp of 6.29 ×10⁻⁶ cm/s (PAMPA-BBB; porcine brain lipid; 500 µM, 4 h, pH 7.4, 1% DMSO).
`CC[C@H](C)[C@@H]1NC(=O)[C@@H]2CCCN2C(=O)[C@H](CC(C)C)NC(=O)[C@H](CC(C)C)NC(=O)CNC(=O)[C@@H](NC(=O)[C@@H](NC(=O)[C@H](CC(=O)O)NC(=O)CNC(=O)[C@@H](NC(=O)[C@H](C)NC(=O)CNC(=O)[C@H](CCCCN)NC(=O)[C@H](CC(C)C)NC(=O)[C@H](CC(C)C)NC(=O)[C@H](CCCCN)NC(=O)CNC(=O)[C@@H](NC(=O)[C@@H](N)CC(C)C)C(C)C)C(C)C)C(C)C)CSSC[C@@H](C(=O)O)NC1=O` — result for “log2 fold change”: -5.4 (RNA-seq, measured: Ighv1-80 mRNA; mouse traumatic brain injury, frontal cortex and hippocampus; dose not given; reference: TBI plus compound vs TBI).
The IC50 of `COc1cc(Nc2ncc(F)c(Nc3ccc4c(n3)NC(=O)C(C)(C)O4)n2)cc(OC)c1OC` is reported as over 10 µM (D(1A) dopamine receptor (DRD1, Homo sapiens, UniProt P21728)).
`COc1ccc2c(c1)[C@]13CCCC[C@@H]1[C@H](C2)N(C)CC3` gave a blood-to-plasma ratio of 1.3 (fresh human whole blood; 1 µM, pH 7.4).
`CN1CC[C@]23c4c5ccc(O[C@@H]6O[C@H](C(=O)O)[C@@H](O)[C@H](O)[C@H]6O)c4O[C@H]2[C@@H](O)C=C[C@H]3[C@H]1C5` has a stability bias of -5.36% (rat, whole blood; 1000 nM, 4 h, room temperature, bench-top storage).
For `Cc1ncc2n1-c1ccc(Cl)cc1C(c1ccccc1F)=NC2`, “decrease in AUCinf” read 16% (healthy human volunteers, plasma; oral, dose not given, CYP3A probe substrate, with: multiple-dose momelotinib; reference: compound alone).
`CC(=O)O[C@H]1C=C[C@H]2[C@H]3Cc4ccc(O)c5c4[C@@]2(CCN3C)[C@H]1O5` has a stability bias of 10% (rat, whole blood; 10 nM, 4 h, room temperature, bench-top storage).
`CC(C)CC(=O)OC[C@H]1O[C@@](C#N)(c2ccc3c(N)ncnn23)[C@H](O)[C@@H]1O` has an intrinsic clearance of 0.695 ± 0.0269 µL/min/pmol (Cytochrome P450 3A5 (CYP3A5, Homo sapiens, UniProt P20815); metabolic stability; recombinant enzyme; 1 µM).
`CC(=O)Oc1ccc2c3c1O[C@H]1[C@@H](OC(C)=O)C=C[C@H]4[C@@H](C2)N(C)CC[C@@]341` has a stability bias of -5.6% (rat, whole blood; 500 nM, 4 months, -80 °C, long-term storage).
Under “patients with adverse event”, `CN1CC[C@@H](c2c(O)cc(O)c3c(=O)cc(-c4ccc(C(F)(F)F)cc4Cl)oc23)[C@@H]1CO` is recorded as 33.3% (measured: Pneumonia; relapsed AML; oral, 100 mg, grade 3-4, intermittent dosing).
`C[C@H]1CN(C(=O)CC#N)[C@]12CCN(c1ncnc3[nH]ccc13)C2`: “participants with influenza-like illness” 3.1% (human; oral, dose not given, all compound groups).
With `C#Cc1ccc2c(c1)C(c1ccccn1)=NCc1c(-c3cnco3)ncn1-2.Cl` the solubility was 4040 µg/mL (thermodynamic equilibrium, UV; isopropanol; 24 h, 25 °C).
`O=C1c2c(O)c(=O)ccn2N([C@@H]2c3ccccc3SCc3c2ccc(F)c3F)[C@@H]2COCCN12` has a plasma concentration of 249 ng/mL (BALB/c mice, plasma; oral, 50 mg/kg baloxavir marboxil, 1 h).
For `CCC(=O)c1ccccc1`, the logD (chromatographic) was 4.52 (pH 7.4).
`CC[C@H](C)[C@H](NC(=O)[C@H](Cc1ccccc1)NC(=O)[C@H](CCC(=O)O)NC(=O)[C@H](CCCNC(=N)N)NC(=O)[C@H](C)NC(=O)[C@H](C)NC(=O)[C@H](CCC(N)=O)NC(=O)[C@H](CCC(=O)O)NC(=O)[C@H](CCC(=O)O)NC(=O)[C@H](CC(C)C)NC(=O)[C@H](Cc1ccc(O)cc1)NC(=O)[C@H](CO)NC(=O)[C@H](CO)NC(=O)[C@@H](NC(=O)[C@H](CC(=O)O)NC(=O)[C@H](CO)NC(=O)[C@@H](NC(=O)[C@H](Cc1ccccc1)NC(=O)[C@@H](NC(=O)CNC(=O)[C@H](CCC(=O)O)NC(=O)[C@H](C)NC(=O)CCc1c[nH]cn1)[C@@H](C)O)[C@@H](C)O)C(C)C)C(=O)N[C@@H](C)C(=O)N[C@@H](Cc1c[nH]c2ccccc12)C(=O)N[C@@H](CC(C)C)C(=O)N[C@H](C(=O)N[C@@H](CCCNC(=N)N)C(=O)NCC(=O)N[C@@H](CCCNC(=N)N)C(=O)N[C@@H](CCCCNC(=O)COCCOCCNC(=O)COCCOCCNC(=O)CC[C@H](NC(=O)CCCCCCCCCCCCCCCCC(=O)O)C(=O)O)C(=O)NCC(=O)NCC(=O)N[C@@H](CO)C(=O)N[C@@H](CCCCNc1c(NCCCCCN(O)C(=O)CCC(=O)NCCCCCN(O)C(=O)CCC(=O)NCCCCCN(O)C(C)=O)c(=O)c1=O)C(=O)O)C(C)C` [zirconium-89 labelled] gave a tissue uptake of 0.3 %ID/g (rat, pancreas; iv, 3 nmol/kg, 4 h, ex vivo).
For `C[C@]1(CO)Cc2ncn(-c3ccc(C#N)c(Cl)c3)c2C(=O)O1`, “drug-related Somnolence incidence” read 0% (healthy humans; 10 mg, fasted).
For `COC(=O)[C@@H]1[C@H]2CC[C@@H](C[C@@H]1O)N2C`, the stability bias was 0.67% (rat, whole blood; 10 nM, 4 freeze-thaw cycles).
With `CN1CC[C@]23c4c5ccc(O)c4O[C@H]2[C@@H](O)CC[C@H]3[C@H]1C5` the Papp was 3.4 ×10⁻⁶ cm/s (PAMPA-BBB; porcine brain lipid; 500 µM, 4 h, pH 7.4, 1% DMSO).
`Cc1ncc2n1-c1ccc(Cl)cc1C(c1ccccc1F)=NC2`: “nervous system adverse events” 21.7% (healthy humans; oral, dose not given).
`CN1CC[C@]23c4c5ccc(O)c4O[C@H]2[C@@H](O[C@@H]2O[C@H](C(=O)O)[C@@H](O)[C@H](O)[C@H]2O)C=C[C@H]3[C@H]1C5` gave a stability bias of -7.26% (rat, whole blood; 1000 nM, 4 months, -80 °C, long-term storage).
Under “change in exposure”, `CCC(CC)COC(=O)[C@H](C)N[P@](=O)(OC[C@H]1O[C@@](C#N)(c2ccc3c(N)ncnn23)[C@H](O)[C@@H]1O)Oc1ccccc1` is recorded as at most 20% (human; dose not given, CYP3A induction, with: carbamazepine).
With `O=c1ccn([C@@H]2O[C@](F)(CO)[C@@H](O)[C@H]2O)c(=O)[nH]1` the oral bioavailability was 24 to 87% (guinea pig; oral).
`COc1cc2c(Oc3ccc4[nH]c(C)cc4c3F)ccnc2cc1OCC1(N)CC1` — result for “grade 1 or 2 influenza-like symptoms”: 0% (paediatric recurrent refractory sarcoma; 8 mg).
For `C[C@H]1CN(c2n[nH]c3nc(N[C@H]4CC[C@H](NS(=O)(=O)CCC(F)(F)F)CC4)ncc23)CCO1`, the relative abundance was 1.02 (Cytoplasmic dynein 1 heavy chain 1 (DYNC1H1, Homo sapiens, UniProt Q14204); inhibitor, Kinobeads competition profiling; 0.16 µM; reference: vehicle).
For `CO[C@H]1C[C@@H]2CC[C@@H](C)[C@@](O)(O2)C(=O)C(=O)N2CCCC[C@H]2C(=O)O[C@H]([C@H](C)C[C@@H]2CC[C@@H](OC(=O)NCCOCCOCCOCCOCCOCCOCCOCCOCCC(=O)N3CCc4cc(Cn5nc(-c6ccc7oc(N)nc7c6)c6c(N)ncnc65)ccc4C3)[C@H](OC)C2)C[C@@H](O)[C@H](C)/C=C(\C)[C@@H](O)[C@@H](OC)C(=O)[C@H](C)C[C@H](C)/C=C/C=C/C=C/1C`, “AEs causing dose modification” read 58.3% (phase 1 dose escalation; advanced solid tumour patients; intravenous, 12 mg weekly, any grade).
`O=C(c1ccc(Cl)cc1)N1CCN2C(=O)N(OC(=O)N3CCOc4ccccc43)C(=O)C2C1` (stereo not shown) — result for “median protein ratio”: 1.11 (Probable serine carboxypeptidase CPVL (CPVL, Homo sapiens, UniProt Q9H3G5); MS-based ABPP; SW-620 conditioned medium; 10 µM, 1 h, 37 °C; reference: compound over DMSO, lower = more inhibition).
With `Cc1ncc2n1-c1ccc(Cl)cc1C(c1ccccc1F)=NC2` the clearance was 393 ± 18 mL/min (wild-type mice, plasma; intravenous, 0.3 mg/kg, with: 3-day vehicle).
